Measured values gathered from unrelated publications.
Compare with care: the assays were run in different laboratories. Numbers after ± are the reported error.

Structure (SMILES)	cell line	assay	system	setting	IC50
CC/C(=C(\c1ccc(O)cc1)c1ccc(OCCN(C)CCOCCOCCOCCOCCOCCN(C)CCOc2ccc(/C(=C(/CC)c3ccccc3)c3ccc(O)cc3)cc2)cc1)c1ccccc1	MCF7 (ER-positive)	cell growth		96 h	0.08 µM
COc1ccc2cc3[n+](cc2c1OCc1cn(Cc2c(Cl)cccc2Cl)nn1)CCc1cc2c(cc1-3)OCO2	SMMC-7721	cell growth or viability, MTT			15.7 µM
CN1CCCNC(=O)CCC(=O)NCCCN(C)CCCNc2cccc3c2C(=O)c2cccc(c2C3=O)NCCC1	mouse bone marrow cells	cell proliferation, CCK-8		48 h	> 20 µM
CCCCCCCCCCn1c(-c2cccnc2)nc(-c2ccc(C)cc2)c1-c1ccc(C)cc1	BT-474	cell growth or viability, SRB		24 h	> 100 µM
CC(C)(C)c1cc(=O)n2ncc(-c3ccc(F)cc3)c2[nH]1	SW480 3D tumour organoids	cytotoxicity	0.4% DMSO	72 h, 2% Matrigel	1.73 µM
N#Cc1cccc(-c2ccc(=O)n(Cc3cccc(-c4ncc(OCC5CCN(CC(=O)NCCOCCOCCNc6ccc7c(c6)C(=O)N(C6CCC(=O)NC6=O)C7=O)CC5)cn4)c3)n2)c1 (stereo not drawn)	EBC-1	cell growth or viability, CCK-8		72 h	0.00555 µM
CC(C)=CCc1c(O)cc2oc3cc(O)c(O)c(CC=C(C)C)c3c(=O)c2c1O	SMMC-7721	cell growth or viability		48 h	6.57 µM
CCc1ccc([C@H](C)CC(=O)NC(=O)N[C@@H]2O[C@H](CO)[C@@H](O)[C@H](O)[C@H]2O)cc1	human T-lymphocyte	cell growth or viability		72 h	> 250 µM
Cc1ccc2nc(Cl)c(-c3nc4cc(F)ccc4[nH]3)cc2c1	L02	cell growth or viability, MTT		48 h	> 100 µM
CCN1/C(=C/C=C2\CCCC(/C=C/C3=[N+](CC)c4ccccc4C3(C)C)=C2NCCCCCCCCN2CCC(Nc3nc4ccccc4n3Cc3ccc(F)cc3)CC2)C(C)(C)c2ccccc21	LN-229	cell growth or viability, CCK-8		72 h	~1 µM
Cc1cc(C)c(-n2c3c([n+](-c4c(C)cc(C)cc4C)[c]2[Au-][Cl])-c2cccc4cccc-3c24)c(C)c1	NTERA2	cell growth or viability, MTT		72 h	11 µM
CC(=O)OC[C@H]1O[C@@H](NC(=O)/C=C/c2ccc(-c3ccccc3)cc2)[C@H](OC(C)=O)[C@@H](OC(C)=O)[C@@H]1OC(C)=O	human T-lymphocyte	cell growth or viability		72 h	≥ 250 µM
CC/C(=C(\c1ccc(O)cc1)c1ccc(OCCN(C)CCOCCOCCOCCOCCOCCOCCOCCN(C)CCOc2ccc(/C(=C(/CC)c3ccccc3)c3ccc(O)cc3)cc2)cc1)c1ccccc1	MCF7 (ER-positive)	cell growth		96 h	0.1 µM
O=C(OCc1ccc(F)cc1)N(Cc1cccc(CN2CCCCC2)c1)[c-]1cccc1.[Fe+2].c1cc[cH-]c1	primary human CLL cells	cell viability, annexin V/7-AAD flow cytometry		48 h	4.8 ± 2 µM
CCc1ccc([C@H](C)CC(=O)N[C@@H]2O[C@H](CO)[C@@H](O)[C@H](O)[C@H]2O)cc1	human T-lymphocyte	cell growth or viability		72 h	> 250 µM
CCCCn1c(-c2cccnc2)nc(-c2ccc(C)cc2)c1-c1ccc(C)cc1	BT-474	cell growth or viability, SRB		48 h	40.5 µM
Clc1nc2ccccc2cc1-c1nc2cc(Br)ccc2[nH]1	L02	cell growth or viability, MTT		48 h	> 100 µM
COCCOc1ccc(-c2ccc3[nH]c4ncc(/C=C/c5ccccc5)cc4c3c2)cc1	Ba/F3 NPM-ALK	cell proliferation, [3H]-thymidine incorporation			5.8 µM
CCOC(=O)CS/C(Nc1ccccc1)=C(\C#N)C(=O)Nc1nnc(NC(=O)c2ccccc2)s1	WI-38 fibroblasts			48 h	22.7 ± 3.8 µM
NCCNC(=O)c1ccc2[nH]c(C(=O)c3ccc(O)cc3)nc2c1	NCI-H441	cell growth or viability, ATP luminescence		72 h	> 300 µM
COc1cccc2c1C(=O)c1c(O)c3c(c(O)c1C2=O)CC(O)(C(=O)CO)CC3OC1CC(NC(=O)CCC2=C(C)C(=O)C=C(C(C)C)C2=O)C(O)C(C)O1 (stereo not drawn)	human dermal fibroblasts	cytotoxicity, MTT		72 h	~10 µM
N#Cc1cccc(-c2ccc(=O)n(Cc3cccc(-c4ncc(OCC5CCN(CC(=O)NCCOCCOCCOCCNc6ccc7c(c6)C(=O)N(C6CCC(=O)NC6=O)C7=O)CC5)cn4)c3)n2)c1 (stereo not drawn)	EBC-1	cell growth or viability, CCK-8		72 h	0.00461 µM
Cc1ccc2nc(Cl)c(-c3nc4cc(Br)ccc4[nH]3)cc2c1	BEL-7404	cell growth or viability, MTT		48 h	> 100 µM
CC(C)N(C[C@H]1O[C@@H](n2cnc3c(N)ncnc32)[C@H](O)[C@@H]1O)C1CC2CN(Cc3ccc(OC(F)(F)F)cc3)CC2C1 (stereo partly drawn)	H460 wild type	cell growth		72 h	> 100 µM
OC[C@H]1[C@@H](O)[C@@H](O)CN1CCc1ccccc1	CEM-DNR daunorubicin resistant	MTS		72 h	99 ± 11 µM
CC(=O)N[C@H](CC(=O)O)C(=O)N[C@H](Cc1ccccc1)C(=O)N[C@@H](CC(=O)N[C@H](CCCNC(=N)N)C(N)=O)c1ccc2ccccc2c1	BT-474	cell growth or viability, ATP luminescence		72 h	> 100 µM

Structure (SMILES)	cell line	assay	system	setting	IC50
COc1ccc(NC(=O)O[C@H]2[C@H](C)O[C@@H](O[C@H]3[C@H](N(C)C)[C@@H](O)[C@H](O[C@H]4[C@@H](CC=O)C[C@@H](C)[C@@H](O[C@H]5CC[C@H](N(C)C)[C@@H](C)O5)/C=C/C=C/C[C@@H](C)OC(=O)C[C@@H](O)[C@@H]4OC)O[C@@H]3C)C[C@@]2(C)O)cc1	GES1	cell growth or viability, CCK-8		72 h	> 50 µM
CC1=C2[O][Ru-]([Cl])[O+]=C2C=CN1CCCCCCCCCCCCN1C=CC2=[O+][Ru-]([Cl])[O]C2=C1C.Cc1ccc(C(C)C)cc1.Cc1ccc(C(C)C)cc1	KYSE-70	cell growth or viability, crystal violet		96 h	22.5 µM
C#CCN(CC(=O)O[C@H]1[C@H](C)O[C@@H](O[C@H]2[C@H](N(C)C)[C@@H](O)[C@H](O[C@H]3[C@@H](CC=O)C[C@@H](C)[C@@H](O[C@H]4CC[C@H](N(C)C)[C@@H](C)O4)/C=C/C=C/C[C@@H](C)OC(=O)C[C@@H](O)[C@@H]3OC)O[C@@H]2C)C[C@@]1(C)O)C(=O)c1ccc(C(F)(F)F)cc1	GES1	cell growth or viability, CCK-8		72 h	1.96 µM
CC(=O)[O][Pt]([Cl])([Cl])[O]C(C)=O.N.N	BXPC-3	cell growth or viability			36.6 µM
O=C(CCCCC1SCC2NC(=O)NC21)NCCCCC1CN(C(CC2CCCCC2)CN2CCCC2CN2C(=O)C(=O)NCC2Cc2ccccc2)C(=O)C(=O)N1CCc1ccccc1 (stereo not drawn)	WM 266-4	cell growth or viability, ATP luminescence		72 h	3.3 µM
CCCCCC(O)/C=C/C=O (stereo not drawn)	MDA-MB-231 proteome	cysteine probe labelling, isoTOP-ABPP		most cysteines, extrapolated	> 100 µM
O=C1NCCN1C[C@H](O)Cn1c2ccc(F)cc2c2cc(F)ccc21	U2OS Per2-dLuc	Per2 reporter gene, repressor			≤ 1 µM
Oc1cccc2[nH]c(/C(=N/OCc3ccccc3)c3cc4cccc(O)c4o3)nc12	NCI-H441	cell growth or viability, ATP luminescence		72 h	42.3 µM
Cc1cc(C)c([N+]#[C][Pt-]([Cl])([Cl])=[C](Nc2ccc(CN[C](Nc3c(C)cc(C)cc3C)=[Au][Cl])cc2)Nc2c(C)cc(C)cc2C)c(C)c1	MRC5	cell growth or viability			> 100 µM
CN(C)CCO/N=C1/C=C2CCC3C(CC[C@]4(C)/C(=C/c5ccccn5)CCC34)[C@@]2(C)CC1 (stereo partly drawn)	human Fibroblast	cell growth or viability, resazurin		72 h	34.2 µM
N=C(N)NCCC[C@H](N)C(=O)NC(CC(=O)N[C@@H](Cc1c[nH]c2ccccc12)C(=O)O)c1ccc2ccccc2c1 (stereo partly drawn)	BT-474	cell growth or viability, ATP luminescence		72 h	> 100 µM
Cc1ccc2nc(Cl)c(-c3nc4cc(Cl)c(Cl)cc4[nH]3)cc2c1	BEL-7404	cell growth or viability, MTT		48 h	> 100 µM
C=C[C@@]12COC(=O)C(=C)[C@@H]1[C@H]1OC(=O)C(=C)[C@@H]1[C@@H](OC(=O)OCCN(C)c1ccc([N+](=O)[O-])c3nonc13)C2	JIMT-1	cell growth or viability, MTT		72 h	10.3 µM
NC1CCCCC1N.O=C(CCCc1ccccc1)[O][Pt]1([O]C(=O)CCCc2ccccc2)[O]C(=O)C(=O)[O]1	BXPC-3	cell growth or viability			7.64 µM
Cc1cc(C)c([N+]#[C][Pt-]([Cl])([Cl])=[C](Nc2cccc(CN[C](Nc3c(C)cc(C)cc3C)=[Au][Cl])c2)Nc2c(C)cc(C)cc2C)c(C)c1	MRC5	cell growth or viability			> 100 µM
COc1cc2c(cc1C(C)(C)O)CCC1C(C)(C)c3nc(C)ncc3C[C@]21C (mixture of isomers)	human Epithelial cell	cell growth or viability, SRB		24 h	> 200 µM
Clc1nc2cc3c(cc2cc1-c1nc2ccccc2[nH]1)OCO3	BEL-7404	cell growth or viability, MTT		48 h	> 100 µM
COc1ccc2cc3[n+](cc2c1OCc1cn(Cc2ccc(Cl)cc2)nn1)CCc1cc2c(cc1-3)OCO2	SMMC-7721	cell growth or viability, MTT			43.7 µM
COc1ccc(/N=N/C(=S)N2CCCCC2)cc1	human Fibroblast	cell growth or viability, resazurin		48 h	> 50 µM
COc1ccc2cc3[n+](cc2c1OCc1cn(Cc2ccc(Cl)cc2F)nn1)CCc1cc2c(cc1-3)OCO2	SMMC-7721	cell growth or viability, MTT			14.3 µM
CC(C)C[C@H](NC(=O)[C@@H](Cc1c[nH]c2ccccc12)NC(=O)[C@H](Cc1ccc(O)cc1)NC(=O)[C@H](CO)NC(=O)[C@H](Cc1c[nH]c2ccccc12)NC(=O)[C@H](Cc1c[nH]cn1)NC(=O)[C@@H]1CCC(=O)N1)C(=O)N[C@@H](CCCNC(=N)N)C(=O)N1CCC[C@H]1C(=O)NCC(N)=O	WPE-1-NB26-3	cell growth, inhibitor, sulforhodamine B staining		four days	0.00017 ± 5e-05 µM
CO[C@@H]1[C@@H](O[C@@H]2O[C@H](C)[C@@H](O[C@H]3C[C@@](C)(O)[C@@H](OC(=O)Nc4ccc(C(F)(F)F)cc4)[C@H](C)O3)[C@H](N(C)C)[C@H]2O)[C@@H](CC=O)C[C@@H](C)[C@@H](O[C@H]2CC[C@H](N(C)C)[C@@H](C)O2)/C=C/C=C/C[C@@H](C)OC(=O)C[C@H]1O	GES1	cell growth or viability, CCK-8		72 h	6.64 µM
COc1c(O)cc2oc3cc(O)c(CC=C(C)C)c(O)c3c(=O)c2c1CC=C(C)C	SMMC-7721	cell growth or viability		48 h	10.3 µM
CCCCCCCCCCCCn1c(-c2cccnc2)nc(-c2ccc(C)cc2)c1-c1ccc(C)cc1	BT-474	cell growth or viability, SRB		24 h	> 100 µM
COc1ccc2nc(Cl)c(-c3nc4cc(Cl)c(Cl)cc4[nH]3)cc2c1	L02	cell growth or viability, MTT		48 h	> 100 µM

A few entries again:
Structure (SMILES)	cell line	assay	system	setting	IC50
CN1CCCNC(=O)CCC(=O)NCCCN(C)CCCNc2cccc3c2C(=O)c2cccc(c2C3=O)NCCC1	mouse bone marrow cells	cell proliferation, CCK-8		48 h	> 20 µM
CCCCCCCCCCn1c(-c2cccnc2)nc(-c2ccc(C)cc2)c1-c1ccc(C)cc1	BT-474	cell growth or viability, SRB		24 h	> 100 µM
CC(C)(C)c1cc(=O)n2ncc(-c3ccc(F)cc3)c2[nH]1	SW480 3D tumour organoids	cytotoxicity	0.4% DMSO	72 h, 2% Matrigel	1.73 µM
N#Cc1cccc(-c2ccc(=O)n(Cc3cccc(-c4ncc(OCC5CCN(CC(=O)NCCOCCOCCNc6ccc7c(c6)C(=O)N(C6CCC(=O)NC6=O)C7=O)CC5)cn4)c3)n2)c1 (stereo not drawn)	EBC-1	cell growth or viability, CCK-8		72 h	0.00555 µM
CC(C)=CCc1c(O)cc2oc3cc(O)c(O)c(CC=C(C)C)c3c(=O)c2c1O	SMMC-7721	cell growth or viability		48 h	6.57 µM
CCc1ccc([C@H](C)CC(=O)NC(=O)N[C@@H]2O[C@H](CO)[C@@H](O)[C@H](O)[C@H]2O)cc1	human T-lymphocyte	cell growth or viability		72 h	> 250 µM
Cc1ccc2nc(Cl)c(-c3nc4cc(F)ccc4[nH]3)cc2c1	L02	cell growth or viability, MTT		48 h	> 100 µM
